Assay results pooled from the literature.
Every numbered part comes from another study and shows a few of its results, in no order. “And” joins repeats or separate records; there may be more than shown.
Sequence of UniProt Q16832 (whole entry, looked up): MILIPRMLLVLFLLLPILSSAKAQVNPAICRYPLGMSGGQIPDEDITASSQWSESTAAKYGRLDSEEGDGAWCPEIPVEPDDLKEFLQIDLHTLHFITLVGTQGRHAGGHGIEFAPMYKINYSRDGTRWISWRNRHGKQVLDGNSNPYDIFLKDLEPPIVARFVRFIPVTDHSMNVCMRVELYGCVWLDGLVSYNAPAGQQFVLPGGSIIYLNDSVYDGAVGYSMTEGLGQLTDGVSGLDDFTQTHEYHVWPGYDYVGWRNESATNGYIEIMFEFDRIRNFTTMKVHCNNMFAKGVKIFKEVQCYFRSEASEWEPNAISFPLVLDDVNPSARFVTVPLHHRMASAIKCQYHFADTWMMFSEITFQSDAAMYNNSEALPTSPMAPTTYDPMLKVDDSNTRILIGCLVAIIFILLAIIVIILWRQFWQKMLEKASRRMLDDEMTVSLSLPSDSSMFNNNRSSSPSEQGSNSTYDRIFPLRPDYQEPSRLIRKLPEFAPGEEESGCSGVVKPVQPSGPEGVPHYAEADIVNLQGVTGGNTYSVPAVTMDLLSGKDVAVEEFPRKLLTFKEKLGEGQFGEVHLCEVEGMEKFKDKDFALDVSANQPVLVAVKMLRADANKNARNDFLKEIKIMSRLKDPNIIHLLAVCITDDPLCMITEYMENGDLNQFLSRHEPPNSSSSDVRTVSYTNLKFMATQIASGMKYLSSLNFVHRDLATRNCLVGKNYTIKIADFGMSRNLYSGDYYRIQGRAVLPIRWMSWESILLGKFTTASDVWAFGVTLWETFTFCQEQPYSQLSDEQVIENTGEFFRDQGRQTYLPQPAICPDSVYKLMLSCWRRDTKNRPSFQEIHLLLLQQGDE
Sequence of UniProt Q9Y2U5 (whole entry, looked up): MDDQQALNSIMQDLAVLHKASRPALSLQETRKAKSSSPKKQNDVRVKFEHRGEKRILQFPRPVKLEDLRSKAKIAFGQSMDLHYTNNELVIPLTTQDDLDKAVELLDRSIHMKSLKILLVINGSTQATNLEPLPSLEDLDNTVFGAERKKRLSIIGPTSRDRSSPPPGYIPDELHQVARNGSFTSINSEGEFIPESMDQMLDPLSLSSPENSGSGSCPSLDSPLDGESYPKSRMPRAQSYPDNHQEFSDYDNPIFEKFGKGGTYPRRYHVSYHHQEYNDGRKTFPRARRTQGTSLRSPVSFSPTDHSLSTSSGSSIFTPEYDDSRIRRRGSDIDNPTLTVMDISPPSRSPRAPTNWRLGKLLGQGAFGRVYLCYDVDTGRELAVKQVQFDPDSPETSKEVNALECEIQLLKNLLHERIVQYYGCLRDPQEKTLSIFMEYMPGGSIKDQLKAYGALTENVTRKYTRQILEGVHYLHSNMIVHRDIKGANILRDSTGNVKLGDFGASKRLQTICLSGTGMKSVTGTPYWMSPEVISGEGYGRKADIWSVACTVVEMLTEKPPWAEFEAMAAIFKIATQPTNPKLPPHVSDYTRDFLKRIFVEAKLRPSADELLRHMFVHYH
Sequence of UniProt Q7KZI7 (whole entry, looked up): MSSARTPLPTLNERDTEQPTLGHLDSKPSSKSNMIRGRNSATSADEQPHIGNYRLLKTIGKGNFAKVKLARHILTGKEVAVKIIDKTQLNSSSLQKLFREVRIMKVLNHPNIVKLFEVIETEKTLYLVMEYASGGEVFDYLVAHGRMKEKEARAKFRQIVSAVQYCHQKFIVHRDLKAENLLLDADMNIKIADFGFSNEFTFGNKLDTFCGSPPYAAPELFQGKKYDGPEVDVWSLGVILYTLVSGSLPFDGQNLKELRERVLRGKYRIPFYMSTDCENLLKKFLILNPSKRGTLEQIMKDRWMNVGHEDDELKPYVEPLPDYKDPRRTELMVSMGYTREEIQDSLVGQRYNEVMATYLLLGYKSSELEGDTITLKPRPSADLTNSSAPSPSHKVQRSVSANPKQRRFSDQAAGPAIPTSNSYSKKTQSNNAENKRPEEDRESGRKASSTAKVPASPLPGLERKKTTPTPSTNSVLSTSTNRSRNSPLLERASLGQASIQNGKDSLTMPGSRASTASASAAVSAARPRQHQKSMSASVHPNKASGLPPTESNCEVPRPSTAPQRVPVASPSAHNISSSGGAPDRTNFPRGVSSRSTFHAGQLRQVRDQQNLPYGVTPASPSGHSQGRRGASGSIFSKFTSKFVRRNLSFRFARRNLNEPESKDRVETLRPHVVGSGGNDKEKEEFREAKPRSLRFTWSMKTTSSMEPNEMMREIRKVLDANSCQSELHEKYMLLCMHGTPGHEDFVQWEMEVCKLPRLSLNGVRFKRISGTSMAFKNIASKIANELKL

Series 1 — action: inhibitor; tested at: concentration not given; together with: without ssDNA
Target: DNA polymerase theta, helicase domain (POLQ, Homo sapiens, UniProt O75417)
Sequence of UniProt O75417 (whole entry, looked up): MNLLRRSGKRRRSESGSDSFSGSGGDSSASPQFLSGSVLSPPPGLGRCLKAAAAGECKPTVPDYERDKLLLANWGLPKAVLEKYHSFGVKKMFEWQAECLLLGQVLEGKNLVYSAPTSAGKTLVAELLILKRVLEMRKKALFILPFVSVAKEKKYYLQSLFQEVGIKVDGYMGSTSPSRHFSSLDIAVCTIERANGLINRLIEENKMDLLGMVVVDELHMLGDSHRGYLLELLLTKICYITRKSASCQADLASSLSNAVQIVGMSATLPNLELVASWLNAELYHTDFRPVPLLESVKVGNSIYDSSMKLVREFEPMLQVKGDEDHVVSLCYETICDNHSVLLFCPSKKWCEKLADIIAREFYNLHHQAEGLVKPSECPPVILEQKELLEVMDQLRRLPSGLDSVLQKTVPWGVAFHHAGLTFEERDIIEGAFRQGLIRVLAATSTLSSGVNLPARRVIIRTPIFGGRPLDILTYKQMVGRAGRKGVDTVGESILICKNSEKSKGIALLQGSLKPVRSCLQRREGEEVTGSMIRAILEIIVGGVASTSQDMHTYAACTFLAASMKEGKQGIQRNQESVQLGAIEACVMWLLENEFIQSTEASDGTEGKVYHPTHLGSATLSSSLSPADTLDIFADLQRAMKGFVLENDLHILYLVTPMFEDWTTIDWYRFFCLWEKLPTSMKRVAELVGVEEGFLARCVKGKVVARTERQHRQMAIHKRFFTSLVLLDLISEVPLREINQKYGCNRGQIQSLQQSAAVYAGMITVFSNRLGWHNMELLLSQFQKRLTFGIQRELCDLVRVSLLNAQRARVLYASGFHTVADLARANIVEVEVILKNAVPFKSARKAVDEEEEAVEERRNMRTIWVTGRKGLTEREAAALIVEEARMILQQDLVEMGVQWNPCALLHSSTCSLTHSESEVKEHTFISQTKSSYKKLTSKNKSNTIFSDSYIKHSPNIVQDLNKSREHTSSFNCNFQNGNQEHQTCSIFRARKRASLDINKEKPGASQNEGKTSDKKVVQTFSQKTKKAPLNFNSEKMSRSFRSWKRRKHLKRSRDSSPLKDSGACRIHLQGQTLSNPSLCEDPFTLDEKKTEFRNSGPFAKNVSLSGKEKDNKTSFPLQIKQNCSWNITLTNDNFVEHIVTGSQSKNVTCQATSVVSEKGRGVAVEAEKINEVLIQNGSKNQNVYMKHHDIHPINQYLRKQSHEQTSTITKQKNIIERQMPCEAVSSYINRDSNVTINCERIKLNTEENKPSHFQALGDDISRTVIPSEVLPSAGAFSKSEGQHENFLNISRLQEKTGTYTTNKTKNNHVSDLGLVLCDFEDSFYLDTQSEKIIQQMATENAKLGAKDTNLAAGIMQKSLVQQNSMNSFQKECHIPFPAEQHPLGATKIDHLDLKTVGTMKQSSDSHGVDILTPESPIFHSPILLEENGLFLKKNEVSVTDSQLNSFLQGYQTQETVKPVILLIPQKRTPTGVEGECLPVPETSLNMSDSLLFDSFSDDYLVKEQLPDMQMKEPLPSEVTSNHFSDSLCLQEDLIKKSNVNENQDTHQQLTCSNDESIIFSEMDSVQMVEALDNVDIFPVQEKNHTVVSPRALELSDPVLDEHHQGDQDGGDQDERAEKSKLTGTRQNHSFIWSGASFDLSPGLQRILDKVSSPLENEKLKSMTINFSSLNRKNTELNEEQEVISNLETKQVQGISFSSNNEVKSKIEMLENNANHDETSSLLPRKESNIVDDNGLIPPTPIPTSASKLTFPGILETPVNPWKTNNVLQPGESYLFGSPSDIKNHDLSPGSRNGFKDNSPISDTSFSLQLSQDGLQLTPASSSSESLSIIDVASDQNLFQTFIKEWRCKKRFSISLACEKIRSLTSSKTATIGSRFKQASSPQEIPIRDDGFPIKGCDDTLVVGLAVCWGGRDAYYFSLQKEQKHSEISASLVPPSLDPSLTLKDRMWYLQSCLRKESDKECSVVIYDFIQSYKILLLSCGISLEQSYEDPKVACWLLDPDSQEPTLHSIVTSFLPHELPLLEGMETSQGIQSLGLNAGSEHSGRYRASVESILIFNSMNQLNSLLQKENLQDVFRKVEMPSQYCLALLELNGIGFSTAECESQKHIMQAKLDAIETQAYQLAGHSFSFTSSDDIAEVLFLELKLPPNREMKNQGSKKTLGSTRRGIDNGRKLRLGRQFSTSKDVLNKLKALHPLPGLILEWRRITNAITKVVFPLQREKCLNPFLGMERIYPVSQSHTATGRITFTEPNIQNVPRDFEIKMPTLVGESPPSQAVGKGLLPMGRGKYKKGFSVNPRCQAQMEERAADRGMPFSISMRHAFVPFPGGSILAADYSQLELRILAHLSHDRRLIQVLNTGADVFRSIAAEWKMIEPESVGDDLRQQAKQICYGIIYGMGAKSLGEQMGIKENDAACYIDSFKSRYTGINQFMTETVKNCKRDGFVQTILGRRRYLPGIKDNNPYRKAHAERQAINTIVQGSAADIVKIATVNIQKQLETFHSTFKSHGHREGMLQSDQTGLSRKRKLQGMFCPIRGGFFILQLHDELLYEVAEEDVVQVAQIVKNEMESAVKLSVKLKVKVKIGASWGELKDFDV
Compound | remaining activity
O=C(Nc1noc2ccccc12)c1ccc(F)cc1 | 53.6% and 52%
CC(=O)Oc1ccccc1C(=O)Nc1ncc([N+](=O)[O-])s1 | 51.8% and 50.6%
CC(C)(C)c1ccc(S(=O)(=O)c2cnc(SCC(=O)Nc3ccc4c(c3)OCCO4)[nH]c2=O)cc1 | 76.1% and 72.7%
O=C(CSc1ncc(S(=O)(=O)c2ccc(Br)cc2)c(=O)[nH]1)NCc1ccc(Cl)cc1 | 68.8% and 67.6%
CC1(C)Cc2c(-c3ccccc3)c(-c3ccc(Cl)cc3)c(CC(=O)O)n2C1 | 50.8% and 50%
CSc1ccc(/C=C/c2nc3ccccc3n2S(=O)(=O)c2ccc(Br)cc2)cc1 | 67.2% and 69.7%
O=C(O)c1cccnc1Nc1cccc(C(F)(F)F)c1 | 37.8% and 36.3%
COc1cccc2c1C(=O)c1c(O)c3c(c(O)c1C2=O)C[C@@](O)(C(=O)CO)C[C@@H]3O[C@H]1C[C@H](N)[C@@H](O)[C@H](C)O1 | 98.7% and 97%

Series 2 — technique: phase 2a trial; species: idiopathic pulmonary fibrosis patients
SMILES: CC(C)n1cnc(-c2ccc(F)cc2)c1-c1ncc(C(=O)Nc2ccc(N3CCN(C)CC3)cc2)[nH]1
conditions | supraventricular extrasystole patients [%]
60 mg once daily, grade 1 emergent event | 0
all arms, grade 3 emergent event | 0
60 mg once daily, grade 5 emergent event | 0
60 mg once daily, grade 4 emergent event | 0
all arms, grade 5 emergent event | 0
all arms, grade 4 emergent event | 0
all arms, grade 2 emergent event | 0
60 mg once daily, grade 3 emergent event | 0
30 mg once daily, grade 2 emergent event | 0

Series 3 — effect on: enzyme activity; action: inhibitor; tested at: 0.5 µM; reference: control
Structure (SMILES): O=c1cc(-c2cccc3c2Sc2ccccc2S3)oc(N2CCOCC2)c1
target | remaining activity [%]
MAP/microtubule affinity-regulating kinase 4 (MARK4, Homo sapiens, UniProt Q96L34) | 100
Cyclin-dependent kinase 1, with cyclin A (CDK1, Homo sapiens, UniProt P06493) | 104
Serine/threonine-protein kinase DCLK2 (DCLK2, Homo sapiens, UniProt Q8N568) | 106
Mitogen-activated protein kinase 1 (MAPK1, Homo sapiens, UniProt P28482) | 100
Serine/threonine-protein kinase PLK3 (PLK3, Homo sapiens, UniProt Q9H4B4) | 98.1
Mitogen-activated protein kinase 11 (MAPK11, Homo sapiens, UniProt Q15759) | 102
Hepatocyte growth factor receptor (MET, Homo sapiens, UniProt P08581) | 107
cGMP-dependent protein kinase 2 (PRKG2, Homo sapiens, UniProt Q13237) | 92.2
Vascular endothelial growth factor receptor 2 (KDR, Homo sapiens, UniProt P35968) | 95.9
Discoidin domain-containing receptor 2 (DDR2, Homo sapiens, UniProt Q16832) | 99.2
Serine/threonine-protein kinase MARK2 (MARK2, Homo sapiens, UniProt Q7KZI7) | 86.3
Serine/threonine-protein kinase PAK 3 (PAK3, Homo sapiens, UniProt O75914) | 95
Dual specificity mitogen-activated protein kinase kinase 1 (MAP2K1, Homo sapiens, UniProt Q02750) | 94.9

Series 4 — effect on: cell-free assay; technique: competition with immobilised ligand; tested at: 1 µM
Compound: CCCCN(CCCC)C(=O)CN1C[C@H](c2cc(OC)c3c(c2)OCO3)[C@@H](C(=O)O)[C@@H]1CC(C)(C)CCC
target | remaining binding [%]
Fibroblast growth factor receptor 1 (FGFR1, Homo sapiens, UniProt P11362) | 89.4
Cyclin-dependent kinase 18 (CDK18, Homo sapiens, UniProt Q07002) | 100
Epidermal growth factor receptor (EGFR, Homo sapiens, UniProt P00533, T790M) | 79
Mitogen-activated protein kinase kinase kinase 9 (MAP3K9, Homo sapiens, UniProt P80192) | 100
Discoidin domain-containing receptor 2 (DDR2, Homo sapiens, UniProt Q16832) | 76.6
Ephrin type-A receptor 8 (EPHA8, Homo sapiens, UniProt P29322) | 100
Myosin light chain kinase (MYLK3, Homo sapiens, UniProt Q32MK0) | 100
Mitogen-activated protein kinase kinase kinase 2 (MAP3K2, Homo sapiens, UniProt Q9Y2U5) | 81.2
Ribosomal protein S6 kinase alpha-5, N-terminal kinase domain (RPS6KA5, Homo sapiens, UniProt O75582) | 100
Mast/stem cell growth factor receptor Kit (KIT, Homo sapiens, UniProt P10721, V559D/V654A) | 100
Protein-tyrosine kinase 6 (PTK6, Homo sapiens, UniProt Q13882) | 100
Phosphatidylinositol 4,5-bisphosphate 3-kinase catalytic subunit alpha isoform (PIK3CA, Homo sapiens, UniProt P42336, Q546K) | 67.3
Tyrosine-protein kinase ABL1, non-phosphorylated (ABL1, Homo sapiens, UniProt P00519, T315I) | 100

Repeated from above (series 2):
conditions | supraventricular extrasystole patients [%]
60 mg once daily, grade 3 emergent event | 0
60 mg once daily, grade 1 emergent event | 0
all arms, grade 5 emergent event | 0
60 mg once daily, grade 5 emergent event | 0
